Measured values from different studies.
Values joined by “and” are separate records of one study, mostly repeats; a detail may differ. Numbers after ± are the reported error.
Spike glycoprotein: Spike glycoprotein (Severe acute respiratory syndrome coronavirus 2, UniProt P0DTC2)
rep main protease: Replicase polyprotein 1ab, main protease (rep, Severe acute respiratory syndrome coronavirus 2, UniProt P0DTD1)

SMILES	tested on	test	test system	setting	how to read	measurement	result
COc1ccc(C[C@@H]2c3cc(Oc4cc(C[C@@H]5c6cc(O)c(OC)cc6CCN5C)ccc4O)c(OC)cc3CCN2C)cc1	Spike glycoprotein	binding, BLI	–	–	–	koff	0.0311 s⁻¹
Cn1cnc(Cn2c(=O)[nH]/c(=N\c3cc4cn(C)nc4cc3Cl)n(Cc3cc(F)c(F)cc3F)c2=O)n1	–	–	human, mild renal impairment	oral, 375 mg, treatment-related dry mouth, Moderate severity	–	patients with adverse event	0%
COP(=O)(OC)OC=C(Cl)Cl	rat CYP3A	midazolam 4-hydroxylation, non-competitive inhibitor	rat Sprague-Dawley, liver microsomes	10 min, pH 7.4, added: midazolam 15 to 214 µM	–	Ki	> 5 mM
CC[C@H](C)[C@H](NC(=O)[C@H](CC(C)C)NC(=O)[C@H](Cc1c[nH]c2ccccc12)NC(=O)[C@H](CCC(N)=O)NC(=O)[C@@H](NC(=O)[C@H](Cc1ccccc1)NC(=O)[C@H](C)NC(=O)[C@H](CCCCNC(=O)COCCOCCNC(=O)COCCOCCNC(=O)CC[C@H](NC(=O)CCCCCCCCCCCCCCCCCCC(=O)O)C(=O)O)NC(=O)[C@H](CCC(N)=O)NC(=O)[C@H](C)NC(=O)[C@@H](NC(=O)[C@H](CCCCN)NC(=O)[C@H](CC(=O)O)NC(=O)[C@H](CC(C)C)NC(=O)C(C)(C)NC(=O)[C@@H](NC(=O)[C@H](CO)NC(=O)[C@H](Cc1ccc(O)cc1)NC(=O)[C@H](CC(=O)O)NC(=O)[C@H](CO)NC(=O)[C@@H](NC(=O)[C@H](Cc1ccccc1)NC(=O)[C@@H](NC(=O)CNC(=O)[C@H](CCC(=O)O)NC(=O)C(C)(C)NC(=O)[C@@H](N)Cc1ccc(O)cc1)[C@@H](C)O)[C@@H](C)O)[C@@H](C)CC)[C@@H](C)CC)C(C)C)C(=O)N[C@@H](C)C(=O)NCC(=O)NCC(=O)N1CCC[C@H]1C(=O)N[C@@H](CO)C(=O)N[C@@H](CO)C(=O)NCC(=O)N[C@@H](C)C(=O)N1CCC[C@H]1C(=O)N1CCC[C@H]1C(=O)N1CCC[C@H]1C(=O)N[C@@H](CO)C(N)=O	–	item: blood glucose ≤70 mg/dL	healthy subjects	4.5 mg, multiple ascending dose	–	subjects with hypoglycaemia	33.3%
O=C(NCC[C@H]1CCCN(C(=O)c2ccc(-c3cnc[nH]3)cc2)C1)c1ccc2n[nH]c(=O)n2c1	rep main protease	enzyme activity, inhibitor	–	5 µM, mean of runs	–	inhibition	10.5%
Nc1ncnc2c1c(-c1ccccn1)cn2CCOCP(=O)(O)OP(=O)(O)OP(=O)(O)O.[Na+].[Na+].[Na+].[Na+]	cya (Bacillus anthracis, UniProt P40136)	enzyme activity, inhibitor	–	–	–	potency relative to reference	~4 fold less potent
CC(=O)N[C@@H](CC(C)C)C(=O)N[C@@H](CC(C)C)C(=O)N[C@H](C=O)CCCN=C(N)N.CC(=O)N[C@@H](CC(C)C)C(=O)N[C@@H](CC(C)C)C(=O)N[C@H](C=O)CCCN=C(N)N.O=S(=O)(O)O	rep main protease	reporter gene (Gaussia luciferase), inhibitor	–	20 µM	–	inhibition	4.56%
CC(C)C[C@H](NC(=O)[C@H](CC(=O)O)NC(=O)CNC(=O)[C@H](CCCNC(=N)N)NC(=O)[C@H](CC(C)C)NC(=O)[C@H](CC(N)=O)NC(=O)[C@@H]1CCCN1C(=O)[C@@H](NC(=O)[C@H](C)NC(=O)[C@H](CC(N)=O)NC(=O)CCOCCOCCOCCOCCOCCOCCOCCOCCOCCOCCOCCOCCOCCOCCOCCOCCOCCOCCOCCOCCOCCOCCOCCOCCOCCOCCOCCOCCNC(=O)c1ccc(F)cc1)C(C)C)C(=O)N[C@@H](CCC(N)=O)C(=O)N[C@H](C(=O)N[C@@H](CC(C)C)C(=O)N[C@@H](C)C(=O)N[C@@H](CCC(N)=O)C(=O)N[C@@H](CCCCN)C(=O)N[C@H](C(=O)N[C@@H](C)C(=O)N[C@@H](CCCNC(=N)N)C(=O)N[C@H](C(=O)NCCOCCOCCOCCOCCOCCOCCOCCOCCOCCOCCOCCOCCOCCOCCOCCOCCOCCOCCOCCOCCOCCOCCOCCOCCOCCOCCOCCOCCC(N)=O)[C@@H](C)O)C(C)C)C(C)C [fluorine-18 labelled]	–	–	female athymic nude mouse, lung	intravenous, range over all time points	–	lung uptake	2 to 3 %ID/g
Nc1ncnc2c([C@@H]3N[C@H](CO)[C@@H](O)[C@H]3O)c[nH]c12	Sudan ebolavirus	viral replication	HeLa, Boniface	200 µM	–	inhibition	89.4%
CCCc1ccc(OCC(=O)N(Cc2nc(-c3cccnc3)no2)C(C)C)cc1	rep main protease	reporter gene (Gaussia luciferase), inhibitor	–	20 µM	–	inhibition	0.494%
C[C@@H]1Cc2ccc(C(=O)N[C@@H](Cc3ccccc3)C(=O)O)c(O)c2C(=O)O1	porcine pancreatic lipase	substrate, HPLC fluorescence	–	pH 7.5, 37 °C, Km above tested range	–	Km	1080 µM
COC(=O)N[C@H](C(=O)NNC[C@H](O)[C@H](Cc1ccccc1)NC(=O)[C@@H](NC(=O)OC)C(C)(C)C)C(C)(C)C	rep main protease	viral replication, Gluc reporter	SARS-CoV-2	20 µM	–	inhibition	0.637%
CC1(C)Cc2ccc(C(=O)N3CCCC[C@H](C4CN(C(=O)c5cncc(O)c5)C4)C3)cc2O1	rep main protease	enzyme activity, inhibitor	–	5 µM	–	inhibition	14.4%
C[C@H]1CC[C@@]2(OC1)O[C@H]1C[C@H]3[C@@H]4CC[C@@H]5C[C@@H](O[C@@H]6O[C@H](CO)[C@H](O)[C@H](O)[C@H]6O[C@@H]6O[C@H](CO)[C@@H](O)[C@H](O)[C@H]6O)CC[C@]5(C)[C@H]4CC[C@]3(C)[C@H]1[C@@H]2C	Spike glycoprotein	binding	–	–	–	koff	0.238 s⁻¹
CC[C@H](C)[C@H](NC(=O)[C@H](CC(C)C)NC(=O)[C@H](CO)NC(=O)[C@H](Cc1c[nH]cn1)NC(=O)[C@@H](NC(=O)[C@H](CC(C)C)NC(=O)[C@H](CO)NC(=O)[C@@H](NC(=O)[C@H](Cc1ccc(O)cc1)NC(=O)[C@H](CC(N)=O)NC(=O)[C@H](CC(N)=O)NC(=O)[C@@H](NC(=O)[C@H](CCC(=O)O)NC(=O)[C@H](CCCNC(=N)N)NC(=O)[C@H](CC(=O)O)NC(=O)[C@H](Cc1c[nH]c2ccccc12)NC(=O)[C@H](CCC(=O)O)NC(=O)[C@H](CCSC)NC(=O)[C@H](Cc1c[nH]c2ccccc12)NC(C)=O)[C@@H](C)CC)[C@@H](C)O)[C@@H](C)CC)C(=O)N[C@@H](CCC(=O)O)C(=O)N[C@@H](CCC(=O)O)C(=O)N[C@@H](CO)C(=O)N[C@@H](CCC(N)=O)C(=O)N[C@@H](CC(N)=O)C(=O)N[C@@H](CCC(N)=O)C(=O)N[C@@H](CCC(N)=O)C(=O)N[C@@H](CCC(=O)O)C(=O)N[C@@H](CCCCN)C(=O)N[C@@H](CC(N)=O)C(=O)N[C@@H](CCC(=O)O)C(=O)N[C@@H](CCC(N)=O)C(=O)N[C@@H](CCC(=O)O)C(=O)N[C@@H](CC(C)C)C(=O)N[C@@H](CC(C)C)C(=O)NCC(=O)N[C@@H](CO)C(=O)NCC(=O)N[C@@H](CSCC(=O)O[C@H]1CC[C@@]2(C)C(=CC[C@H]3[C@@H]4CC[C@H]([C@H](C)CCCC(C)(C)O)[C@@]4(C)CC[C@@H]32)C1)C(N)=O	–	Trp fluorescence	POPC vesicles	5 µM, pH 7.4, 25 °C	–	partition coefficient	1540 ± 347
NC1CCC2(CCCCC2)CC1	Matrix protein 2 (Influenza A virus, UniProt P0DOF5)	channel activity, inhibitor	–	100 µM, 2 min	–	remaining activity	10.6 ± 0.7%
NC(=O)c1cc(C(=O)NC[C@H]2CN(C(=O)/C=C/c3cccnc3)Cc3ccccc32)c[nH]1	rep main protease	enzyme activity, inhibitor	–	5 µM, mean of runs	–	inhibition	34.4%
COc1ccc(-c2cc(=O)c3c(OC)cc(OC)c(OC)c3o2)cc1OC	rep main protease	reporter gene (Gaussia luciferase), inhibitor	–	20 µM	–	inhibition	1.02%
Cc1c[nH]c2ncc(C(=O)N[C@H]3[C@H](CNc4cc(=O)n5ccccc5n4)CCC34CCC4)cc12	rep main protease	enzyme activity, inhibitor	–	5 µM, mean of runs	–	inhibition	17.9%
CC(C)=CCC/C(C)=C/CC/C(C)=C/CC/C(C)=C/CC1=C(C)C(=O)c2ccccc2C1=O	Spike glycoprotein	binding, BLI	–	–	–	koff	0.000852 s⁻¹
CNC(=O)[C@@H](NC(=O)[C@H](CC(C)C)[C@H](O)C(=O)NO)C(C)(C)C	Daboia russelii venom proteases (SVMP)	protease activity, inhibitor	KL population	1 µM, added: azocasein substrate	reference: venom alone	remaining activity	6.59% and 9.24% and 7.56%

Some of these lines once more:
SMILES	tested on	test	test system	setting	how to read	measurement	result
Cc1c[nH]c2ncc(C(=O)N[C@H]3[C@H](CNc4cc(=O)n5ccccc5n4)CCC34CCC4)cc12	rep main protease	enzyme activity, inhibitor	–	5 µM, mean of runs	–	inhibition	17.9%
CC(C)=CCC/C(C)=C/CC/C(C)=C/CC/C(C)=C/CC1=C(C)C(=O)c2ccccc2C1=O	Spike glycoprotein	binding, BLI	–	–	–	koff	0.000852 s⁻¹
